Assay results collected from several papers.
Compare with care: the assays were run in different laboratories. pKd: −log10 of the molar value.
U2AF2: U2AF2 148-342 (Homo sapiens, UniProt P26368)
Chain of UniProt P26368 (whole entry, looked up): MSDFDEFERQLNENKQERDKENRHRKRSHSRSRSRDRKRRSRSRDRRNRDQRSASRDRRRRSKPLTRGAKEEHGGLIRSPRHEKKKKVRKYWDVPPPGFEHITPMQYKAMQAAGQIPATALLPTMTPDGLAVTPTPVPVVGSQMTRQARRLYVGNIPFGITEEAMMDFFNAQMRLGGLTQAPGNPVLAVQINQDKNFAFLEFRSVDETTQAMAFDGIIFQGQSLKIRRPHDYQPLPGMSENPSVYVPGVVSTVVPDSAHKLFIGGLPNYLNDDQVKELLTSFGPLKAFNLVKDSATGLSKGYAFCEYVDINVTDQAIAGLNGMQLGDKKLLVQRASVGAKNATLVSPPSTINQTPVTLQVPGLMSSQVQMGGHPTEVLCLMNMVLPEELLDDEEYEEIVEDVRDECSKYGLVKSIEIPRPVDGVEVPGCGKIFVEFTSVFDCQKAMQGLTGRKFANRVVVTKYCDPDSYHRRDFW
B1: SH3GL2 (Homo sapiens, UniProt Q99962); sequence looked up; chain MSVAGLKKQFHKATQKVSEKVGGAEGTKLDDDFKEMERKVDVTSRAVMEIMTKTIEYLQPNPASRAKLSMINTMSKIRGQEKGPGYPQAEALLAEAMLKFGRELGDDCNFGPALGEVGEAMRELSEVKDSLDIEVKQNFIDPLQNLHDKDLREIQHHLKKLEGRRLDFDYKKKRQGKIPDEELRQALEKFDESKEIAESSMFNLLEMDIEQVSQLSALVQAQLEYHKQAVQILQQVTVRLEERIRQASSQPRREYQPKPRMSLEFPTGDSTQPNGGLSHTGTPKPSGVQMDQPCCRALYDFEPENEGELGFKEGDIITLTNQIDENWYEGMLHGHSGFFPINYVEILVALPH
B2: ZTL 29-165 G46S/G80R (Arabidopsis thaliana, UniProt Q94BT6); sequence looked up; chain GGPIPYPVGNLLHTAPCSFVVTDAVEPDQPIIYVNTVFEMVTGYRAEEVLGRNCRFLQCRGPFAKRRHPLVDSMVVSEIRKCIDEGIEFQGELLNFRKDGSPLMNRLRLTPIYGDDDTITHIIGIQFFIETDIDLGP
B3: ilvA 335-514 F352A (Escherichia coli, UniProt P04968); sequence looked up; chain EQREALLAVTIPEEKGSALKFCQLLGGRSVTEFNYRFADAKNACIFVGVRLSRGLEERKEILQMLNDGGYSVVDLSDDEMAKLHVRYMVGGRPSHPLQERLYSFEFPESPGALLRFLNTLGTYWNISLFHYRSHGTDYGRVLAAFELGDHEPDFETRLNELGYDCHDETNNPAFRFFLAG
B4: Tln1 2301-2541 (Mus musculus, UniProt P26039); chain PTVIAENELLGAAAAIEAAAKKLEQLKPRAKPKEADESLNFEEQILEAAKSIAAATSALVKAASAAQRELVAQGKVGAIPANALDDGQWSQGLISAARMVAAATNNLCEAANAAVQGHASQEKLISSAKQVAASTAQLLVACKVKADQDSEAMKRLQAAGNAVKRASDNLVKAAQKAAAFEDQENETVVVKEKMVGGIAQIIAAQEEMLRKERELEEARKKLAQIRQQQYKFLPSELRDEH
B5: dnaD (Bacillus subtilis, UniProt P39787); chain GSHMKKQQFIDMQEQGTSTIPNLLLTHYKQLGLNETELILLLKIKMHLEKGSYFPTPNQLQEGMSISVEECTNRLRMFIQKGFLFIEECEDQNGIKFEKYSLQPLWGKLYEYIQLAQNQTQERKAEGEQKSLYTIFEEEFARPLSPLECETLAIWQDQDQHDAQLIKHALKEAVLSGKLSFRYIDRILFEWKKNGLKTVEQAKIHSQKFRRVQAKQNEPQKEYKRQVPFYNWLEQ
B6: TBK1 D135N/H459E/N474A (Homo sapiens, UniProt Q9UHD2); sequence looked up; chain MQSTSNHLWLLSDILGQGATANVFRGRHKKTGDLFAIKVFNNISFLRPVDVQMREFEVLKKLNHKNIVKLFAIEEETTTRHKVLIMEFCPCGSLYTVLEEPSNAYGLPESEFLIVLRDVVGGMNHLRENGIVHRNIKPGNIMRVIGEDGQSVYKLTDFGAARELEDDEQFVSLYGTEEYLHPDMYERAVLRKDHQKKYGATVDLWSIGVTFYHAATGSLPFRPFEGPRRNKEVMYKIITGKPSGAISGVQKAENGPIDWSGDMPVSCSLSRGLQVLLTPVLANILEADQEKCWGFDQFFAETSDILHRMVIHVFSLQQMTAHKIYIHSYNTATIFHELVYKQTKIISSNQELIYEGRRLVLEPGRLAQHFPKTTEENPIFVVSREPLNTIGLIYEKISLPKVHPRYDLDGDASMAKAITGVVCYACRIASTLLLYQELMRKGIRWLIELIKDDYNETVEKKTEVVITLDFCIRAIEKTVKVYEKLMKINLEAAELGEISDIHTKLLRLSSSQGTIETSLQDIDSRLSPGGSLADAWAHQEGTHPKDRNVEKLQVLLNCMTEIYYQFKKDKAERRLAYNEEQIHKFDKQKLYYHATKAMTHFTDECVKKYEAFLNKSEEWIRKMLHLRKQLLSLTNQCFDIEEEVSKYQEYTNELQETLPQKMFTASSGIKHTMTPIYPSSNTLVEMTLGMKKLKEEMEGVVKELAENNHILERFGSLTMDGGLRNVDCL
B7: ACAT1 35-427 Y407F (Homo sapiens, UniProt P24752); chain SKPTLKEVVIVSATRTPIGSFLGSLSLLPATKLGSIAIQGAIEKAGIPKEEVKEAYMGNVLQGGEGQAPTRQAVLGAGLPISTPCTTINKVCASGMKAIMMASQSLMCGHQDVMVAGGMESMSNVPYVMNRGSTPYGGVKLEDLIVKDGLTDVYNKIHMGSCAENTAKKLNIARNEQDAYAINSYTRSKAAWEAGKFGNEVIPVTVTVKGQPDVVVKEDEEYKRVDFSKVPKLKTVFQKENGTVTAANASTLNDGAAALVLMTADAAKRLNVTPLARIVAFADAAVEPIDFPIAPVYAASMVLKDVGLKKEDIAMWEVNEAFSLVVLANIKMLEIDPQKVNINGGAVSLGHPIGMSGARIVGHLTHALKQGEFGLASICNGGGGASAMLIQKL
B8: bcsZ 22-368 (Escherichia coli, UniProt P37651); chain ACTWPAWEQFKKDYISQEGRVIDPSDARKITTSEGQSYGMFSALAANDRAAFDNILDWTQNNLAQGSLKERLPAWLWGKKENSKWEVLDSNSASDGDVWMAWSLLEAGRLWKEQRYTDIGSALLKRIAREEVVTVPGLGSMLLPGKVGFAEDNSWRFNPSYLPPTLAQYFTRFGAPWTTLRETNQRLLLETAPKGFSPDWVRYEKDKGWQLKAEKTLISSYDAIRVYMWVGMMPDSDPQKARMLNRFKPMATFTEKNGYPPEKVDVATGKAQGKGPVGFSAAMLPFLQNRDAQAVQRQRVADNFPGSDAYYNYVLTLFGQGWDQHRFRFSTKGELLPDWGQECANSH
B9: PF1070 1-140 C93S (Pyrococcus furiosus, UniProt Q8U1Y4); sequence looked up; chain MPSSSKSDFSFSTLIIPQHYLRAILKVVSSSSVEVCGFLFGKENRVLKVRFIRNRLNSPVEFEMDPEEMLKALEEAEQENLEVVGIFHSHIASPPIPSGKDLEGMKRWPVIWLIVNEKGEYKAWILSEKNKISEVKIVVE
B10: BEX3 (Homo sapiens, UniProt Q00994); sequence looked up; chain MANIHQENEEMEQPMQNGEEDRPLGGGEGHQPAGNRRGQARRLAPNFRWAIPNRQINDGMGGDGDDMEIFMEEMREIRRKLRELQLRNCLRILMGELSNHHDHHDEFCLMP
B11: AMY3 56-391 (Arabidopsis thaliana, UniProt Q94A41); sequence looked up; chain SMNKSPVAIRATSSDTAVVETAQSDDVIFKEIFPVQRIEKAEGKIYVRLKEVKEKNWELSVGCSIPGKWILHWGVSYVGDTGSEWDQPPEDMRPPGSIAIKDYAIETPLKKLSEGDSFFEVAINLNLESSVAALNFVLKDEETGAWYQHKGRDFKVPLVDDVPDNGNLIGAKKGFGALGQLSNIPLKQDKSSAETDSIEERKGLQEFYEEMPISKRVADDNSVSVTARKCPETSKNIVSIETDLPGDVTVHWGVCKNGTKKWEIPSEPYPEETSLFKNKALRTRLQRKDDGNGSFGLFSLDGKLEGLCFVLKLNENTWLNYRGEDFYVPFLTSSSS
B12: human RAB8A; sequence looked up; chain MAKTYDYLFKLLLIGDSGVGKTCVLFRFSEDAFNSTFISTIGIDFKIRTIELDGKRIKLQIWDTAGQERFRTITTAYYRGAMGIMLVYDITNEKSFDNIRNWIRNIEEHASADVEKMILGNKCDVNDKRQVSKERGEKLALDYGIKFMETSAKANINVENAFFTLARDIKAKMDKKLEGNSPQGSNQGVKITPDQQKRSSFFRC
B13: RECQL 49-616 (Homo sapiens, UniProt P46063); sequence looked up; chain CLEDSDAGASNEYDSSPAAWNKEDFPWSGKVKDILQNVFKLEKFRPLQLETINVTMAGKEVFLVMPTGGGKSLCYQLPALCSDGFTLVICPLISLMEDQLMVLKQLGISATMLNASSSKEHVKWVHAEMVNKNSELKLIYVTPEKIAKSKMFMSRLEKAYEARRFTRIAVDEVHCCSQWGHDFRPDYKALGILKRQFPNASLIGLTATATNHVLTDAQKILCIEKCFTFTASFNRPNLYYEVRQKPSNTEDFIEDIVKLINGRYKGQSGIIYCFSQKDSEQVTVSLQNLGIHAGAYHANLEPEDKTTVHRKWSANEIQVVVATVAFGMGIDKPDVRFVIHHSMSKSMENYYQESGRAGRDDMKADCILYYGFGDIFRISSMVVMENVGQQKLYEMVSYCQNISKCRRVLMAQHFDEVWNSEACNKMCDNCCKDSAFERKNITEYCRDLIKILKQAEELNEKLTPLKLIDSWMGKGAAKLRVAGVVAPTLPREDLEKIIAHFLIQQYLKEDYSFTAYATISYLKIGPKANLLNNEAHAITMQVTKSTQNSFRAESSQTCHSEQGDKKME
B14: gppA (Escherichia coli, UniProt P25552); sequence looked up; chain MGSTSSLYAAIDLGSNSFHMLVVREVAGSIQTLTRIKRKVRLAAGLNSENALSNEAMERGWQCLRLFAERLQDIPPSQIRVVATATLRLAVNAGDFIAKAQEILGCPVQVISGEEEARLIYQGVAHTTGGADQRLVVDIGGASTELVTGTGAQTTSLFSLSMGCVTWLERYFADRNLGQENFDAAEKAAREVLRPVADELRYHGWKVCVGASGTVQALQEIMMAQGMDERITLEKLQQLKQRAIHCGRLEELEIDGLTLERALVFPSGLAILIAIFTELNIQCMTLAGGALREGLVYGMLHLAVEQDIRSRTLRNIQRRFMIDIDQAQRVAKVAANFFDQVENEWHLEAISRDLLISACQLHEIGLSVDFKQAPQHAAYLVRNLDLPGFTPAQKKLLATLLLNQTNPVDLSSLHQQNAVPPRVAEQLCRLLRLAIIFASRRRDDLVPEMTLQANHELLTLTLPQGWLTQHPLGKEIIAQESQWQSYVHWPLEVH
B15: TGFBI FAS1-4 domain, residues 502-657 (Homo sapiens, UniProt Q15582); chain AGMGTVMDVLKGDNRFSMLVAAIQSAGLTETLNREGVYTVFAPTNEAFRALPPRERSRLLGDAKELANILKYHIGDEILVSGGIGALVRLKSLQGDKLEVSLKNNVVSVNKEPVAEPDIMATNGVVHVITNVLQPPANRPQERGDELADSALEIFKQA
Chain of UniProt Q9UBH6 (whole entry, looked up): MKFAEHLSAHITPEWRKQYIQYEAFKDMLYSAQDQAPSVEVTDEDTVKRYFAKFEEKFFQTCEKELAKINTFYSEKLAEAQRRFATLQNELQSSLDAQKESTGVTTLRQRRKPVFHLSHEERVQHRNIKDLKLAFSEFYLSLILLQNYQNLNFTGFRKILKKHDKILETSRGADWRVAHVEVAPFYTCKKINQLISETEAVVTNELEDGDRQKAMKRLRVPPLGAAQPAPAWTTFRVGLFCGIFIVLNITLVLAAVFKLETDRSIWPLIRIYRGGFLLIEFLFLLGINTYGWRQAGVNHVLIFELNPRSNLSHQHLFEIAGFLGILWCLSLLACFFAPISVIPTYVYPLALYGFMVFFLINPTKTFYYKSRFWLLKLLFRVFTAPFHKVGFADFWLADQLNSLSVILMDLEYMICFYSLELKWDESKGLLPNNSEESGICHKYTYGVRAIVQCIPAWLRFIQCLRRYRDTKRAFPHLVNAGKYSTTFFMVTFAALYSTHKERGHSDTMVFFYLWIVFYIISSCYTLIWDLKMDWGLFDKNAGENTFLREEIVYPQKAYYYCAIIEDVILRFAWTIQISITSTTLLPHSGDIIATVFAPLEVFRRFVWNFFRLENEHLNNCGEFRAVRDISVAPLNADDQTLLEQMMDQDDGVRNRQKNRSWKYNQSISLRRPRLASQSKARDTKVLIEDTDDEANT
Chain of UniProt P34540 (whole entry, looked up): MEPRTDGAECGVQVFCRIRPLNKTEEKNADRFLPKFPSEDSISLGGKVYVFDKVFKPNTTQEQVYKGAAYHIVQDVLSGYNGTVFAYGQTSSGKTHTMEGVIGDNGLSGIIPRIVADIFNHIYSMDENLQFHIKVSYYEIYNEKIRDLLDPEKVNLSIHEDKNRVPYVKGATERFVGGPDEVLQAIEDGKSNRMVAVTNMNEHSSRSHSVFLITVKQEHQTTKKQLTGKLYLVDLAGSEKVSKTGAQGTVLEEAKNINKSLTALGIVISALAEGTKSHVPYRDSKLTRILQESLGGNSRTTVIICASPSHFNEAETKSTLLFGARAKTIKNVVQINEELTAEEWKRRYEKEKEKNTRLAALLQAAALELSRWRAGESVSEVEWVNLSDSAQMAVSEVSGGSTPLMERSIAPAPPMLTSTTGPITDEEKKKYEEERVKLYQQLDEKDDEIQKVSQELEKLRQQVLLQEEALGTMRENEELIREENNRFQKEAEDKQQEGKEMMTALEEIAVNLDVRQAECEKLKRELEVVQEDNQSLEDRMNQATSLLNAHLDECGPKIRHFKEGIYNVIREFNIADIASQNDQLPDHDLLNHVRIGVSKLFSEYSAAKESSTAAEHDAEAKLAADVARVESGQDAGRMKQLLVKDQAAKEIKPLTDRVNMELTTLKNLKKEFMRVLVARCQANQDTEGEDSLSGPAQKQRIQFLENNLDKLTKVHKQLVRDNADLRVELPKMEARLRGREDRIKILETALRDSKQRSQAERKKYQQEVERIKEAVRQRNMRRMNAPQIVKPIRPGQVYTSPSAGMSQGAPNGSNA

`poly(rC)-binding protein 1, human`: “log2 fold change” 0.99 (CYB5R4 knockout human cells; PP4 interaction, 3xFLAG-PP4C IP-MS; concentration not given; reference: CYB5R4 KO over parental).
`B1 (SH3GL2)`: “subunits per oligomer” 2 (itself; SEC-SAXS).
`B2 (ZTL 29-165 G46S/G80R)`: “subunits per oligomer” 2 (itself; SEC-SAXS).
For `B3 (ilvA 335-514 F352A)`, “subunits per oligomer” read 2 (itself; crystal structure; added: isoleucine).
`B4 (Tln1 2301-2541)`: “subunits per oligomer” 2 (itself; SEC-MALS).
`B5 (dnaD)` — result for “subunits per oligomer”: 2 (itself; SEC).
For `B6 (TBK1 D135N/H459E/N474A)`, “subunits per oligomer” read 2 (itself; SEC-MALS).
`B7 (ACAT1 35-427 Y407F)` — result for “subunits per oligomer”: 4 (itself; cross-linking; Y407F mutant).
`CCCGCUUUG (ssRNA)` gave a pKd of 5.63 (U2AF2; sequencing of bound RNA; RNA; motif only).
Under “subunits per oligomer”, `B8 (bcsZ 22-368)` is recorded as 4 (itself; cryo-EM).
`XPR1 (Homo sapiens, UniProt Q9UBH6)`: “subunits per oligomer” 2 (itself; cryo-EM).
`MVRVITFKAEEELLVKLDLFALNSRMSRSEIIRMAIEKYLEEAAGGIRTRDRRLSRQ (SiRe_1157 (Saccharolobus islandicus, UniProt F0NEU4); sequence looked up)`: “subunits per oligomer” 2 (itself; SEC).
For `B9 (PF1070 1-140 C93S)`, “subunits per oligomer” read 2 (itself; SEC).
`B10 (BEX3)`: “subunits per oligomer” 2 (itself; SDS-PAGE).
For `B11 (AMY3 56-391)`, “subunits per oligomer” read 2 (itself; cross-linking; 30 min, pH 7.5).
Under “log2 fold change”, `B12 (human RAB8A)` is recorded as -2.15 (CYB5R4 knockout human cells; PP4 interaction, 3xFLAG-PP4C IP-MS; concentration not given; reference: CYB5R4 KO over parental).
`CUCUUUUUC (ssRNA)` has a pKd of 5.35 (U2AF2; sequencing of bound RNA; RNA; motif only).
`B13 (RECQL 49-616)` — result for “subunits per oligomer”: 2 (itself; SEC).
For `B14 (gppA)`, “subunits per oligomer” read 4 (itself; crystal structure).
`B15`: “subunits per oligomer” 2 (itself; cross-linking).
`unc-116 (Caenorhabditis elegans, UniProt P34540)` — result for “subunits per oligomer”: 2 (itself; mass photometry).

A few entries again:
`B10 (BEX3)`: “subunits per oligomer” 2 (itself; SDS-PAGE).
For `B11 (AMY3 56-391)`, “subunits per oligomer” read 2 (itself; cross-linking; 30 min, pH 7.5).
Under “log2 fold change”, `B12 (human RAB8A)` is recorded as -2.15 (CYB5R4 knockout human cells; PP4 interaction, 3xFLAG-PP4C IP-MS; concentration not given; reference: CYB5R4 KO over parental).
